# Experimental data collected from several papers.
# Each numbered part is a random draw from the data of one study; scales do not carry over between parts. Substitutions count along the parent as printed.

# Sample 1
# Target: CCNF, cyclin fold, Cln2 fusion (human)
# Method: yeast growth competition, sequencing
# Sample: yeast
# Setting: strong parent motif
# Relative to: not given
# Direction: higher = stronger binding
# Parent: USP37 docking peptide (human); PSAKRSLGFLPQP
Substitution,normalised enrichment score
Q12A,4.1
P1A,2.24
L10A,4.66
G8A,6.5
P11A,3.02
S2A,3.28

# Sample 2
# Target: RNA binding protein fox-1 homolog 2, RRM domain, GST-SBP tag (RBFOX2, Homo sapiens, UniProt O43251-10, residues 100-194)
# Method: RNA Bind-n-Seq
# Form: RNA
# Sample: in vitro
# Tested at: 365 nM
# Setting: natural RNA segment, single round, ends assumed
# Relative to: no-protein control
# Direction: higher = stronger binding
# Residues (chain): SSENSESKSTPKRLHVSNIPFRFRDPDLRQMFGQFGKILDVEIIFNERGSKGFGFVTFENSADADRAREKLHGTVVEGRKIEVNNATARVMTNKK
Oligonucleotide,RBNS enrichment (R)
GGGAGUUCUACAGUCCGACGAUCCAACAUCUGAAGGCUUAAAGAACAUUGUCGUUCUUCAGCCCUCCUUGCUUCUCUCAAUACAAUAAGACAUUGCAGAAGCAAAAGGGUGGCCUCUGCUCCAGGCAAGGCAGUGGAAUUCUCGGGUGCCAA,0.308
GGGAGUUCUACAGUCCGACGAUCUCUUCCAGCCAAAACGGGAAAAGUGGCUGACUUCACUGCAUUAGAAGAGGAAAAGUCCAACUCCUUAGGGAGUCUGAGCCUGGCACGGGCUUGGGGAAAGAAGGCUGCAGUGGAAUUCUCGGGUGCCAA,0.595
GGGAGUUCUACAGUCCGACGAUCUUUCCCAUUAAGUCUGAGAGGCAAGAGCUAGGUUAGGCAAGGAGGUGGUUGGCCAGAGAUGGGGAACAGCCAGGUGCCCCAGUCCUCUGAUUUUUCCUCCAUCCUGCUUAUGGAAUUCUCGGGUGCCAA,0.504
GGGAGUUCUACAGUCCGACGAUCUGCCCUCCCAGGAUCUAUUCCUGGUGGGCACUGCUGUGUCUCCCCCAGAGUGGCACUCAAAGUACUAUCAAACAAUAAAAGGAAAAUGGUGCUGUUUGAAGUUACAUCCCUGGAAUUCUCGGGUGCCAA,0.331
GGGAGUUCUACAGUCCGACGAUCCUGUUCUAGUGGUUGUAGGGUAAAGACGAACUGGUGAAGCAGUCGUAGCGCCGACCGAAGGUGAUUCCAGUUGUAUAUGUCACGCAGCAUUCGAAGGGACUGUGCACGCUUGGAAUUCUCGGGUGCCAA,3
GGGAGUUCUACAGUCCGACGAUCUACACAUAACUGACUGGAAAGAAUUAAUUUCUUUCCCCCAGCUUAAUGCAUGUUGAGGAUAUUGAGCUAUUUUUCAUCUUAAAGGUAUUAGGCACUUUUGUUGGAGCCUGUGGAAUUCUCGGGUGCCAA,0.657
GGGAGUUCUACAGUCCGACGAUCAAGGCAGUGACCUCCUACUGACUUCCAACACAAUCCAGGGACAUUCUUCUCAACCCUUCAAACUUCUGGUGACACUUAAGAUGUAGCUGAUUCCCCUCAUCCGAACUGCUUGGAAUUCUCGGGUGCCAA,1.24
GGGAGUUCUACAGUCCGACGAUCCAAAGAAGCCACUGUUUGGGGAUGGCGCCCUGGAAAACAGCCUCCCACCUGGGAUAGCUAGAGCAUCCACACGUGGAAUUCUUUCUUUACUAACAAACGAUAGCUGAUUGUGGAAUUCUCGGGUGCCAA,0.866

# Sample 3
# Target: Histone acetyltransferase KAT6A, winged helix 1, GST fusion (KAT6A, Homo sapiens, UniProt Q92794, residues 1-85)
# Method: protein binding microarray
# Form: double-stranded DNA, one strand shown
# Sample: in vitro
# Tested at: not given
# Setting: 8-mer, flanks averaged, mean of 2 arrays, mostly near background
# Relative to: not given
# Direction: higher = stronger binding
# Target sequence (chain): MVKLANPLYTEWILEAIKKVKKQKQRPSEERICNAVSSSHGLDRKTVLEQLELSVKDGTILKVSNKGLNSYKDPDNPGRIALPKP
Oligonucleotide,E-score
AGTCGTAA,-0.121
GGCACGGA,0.197
AATGTTGA,-0.0773
CGAGTTAA,-0.0748
AACACATT,-0.0842
GTCCAGGA,-0.28
GCCCCGAA,0.0527
AATCCTAT,-0.0896
CTCGCAGC,-0.0794
CGCGCTTC,0.413
GATGCTGC,-0.0793
ACGGTTAT,0.167
CGTTTAAG,0.11
GTTCAGAA,-0.0412
ATGTTGCG,0.0977
AGTTACCG,0.153
CACAGCTC,-0.173
AAGCACTT,-0.113
ATATTACG,0.149
GCAACCCA,-0.0814
GGGTGTGA,-0.0544
ACTTCTTA,-0.168
GCCTGTCA,-0.122
TCACGCAA,-8.5e-05
TGAAACAA,-0.249

# Sample 4
# Target: Centromere-binding protein 1, full length, His-tagged (CBF1, Saccharomyces cerevisiae, UniProt P17106, residues 1-351)
# UniProt P17106, sequence (whole entry, looked up): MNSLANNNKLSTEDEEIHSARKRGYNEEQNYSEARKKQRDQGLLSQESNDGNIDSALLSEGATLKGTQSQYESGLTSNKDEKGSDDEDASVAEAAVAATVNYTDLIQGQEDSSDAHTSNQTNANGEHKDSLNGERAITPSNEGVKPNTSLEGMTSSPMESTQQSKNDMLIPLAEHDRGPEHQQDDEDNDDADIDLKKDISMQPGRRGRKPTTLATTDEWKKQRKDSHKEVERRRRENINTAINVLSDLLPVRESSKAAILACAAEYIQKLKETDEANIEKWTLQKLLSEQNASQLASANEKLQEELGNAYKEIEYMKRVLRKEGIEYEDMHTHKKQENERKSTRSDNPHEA
# Method: competition protein-binding microarray
# Form: double-stranded DNA, one strand shown
# Sample: in vitro
# Tested at: 2 µM
# Setting: whole 60-bp probe, lowest competitor level
# With: Pho4 competitor, 0.05 µM
# Direction: higher = stronger binding
Oligonucleotide,fluorescence intensity [a.u.]
CTTCTGTAAATTTGATTCGTGGGTGGACGCGCCCCGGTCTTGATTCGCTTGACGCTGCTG,91
CCTGCACCGACTCCGTGCGTGCGGAATTGGTAATGCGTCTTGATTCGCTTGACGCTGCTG,64.5
AATCGTTAACACCGTCACCTGTCATTGCGCAGAACTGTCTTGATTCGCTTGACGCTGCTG,126
ACAGAATATCCCGACCACATGGCAAGACCAAGAAAGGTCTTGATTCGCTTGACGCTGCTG,151
GATCTTGGATACGACCGTGTGACGCCCGAGACTCTTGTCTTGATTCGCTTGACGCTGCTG,58.3
AAATTACTAAGTTGTCACTCGACTTACCCCGTATGAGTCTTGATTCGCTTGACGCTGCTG,93.3
TCAAGACCCTTAAAGCACGTTTTTTTCAGGCTCGGCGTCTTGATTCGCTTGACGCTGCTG,226
AACTGAGGTTTTCGTCACATGTACCGCCCTTTCTTCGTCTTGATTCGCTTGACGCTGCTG,593
ACCTTGAGCTCGAAAAATGTGACGGATACTTTTTCCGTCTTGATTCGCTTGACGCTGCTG,87.9
CTAACGAAGGTTTGTGGAGTGGGTGACAAGCCAAGTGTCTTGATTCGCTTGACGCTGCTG,60.2
AACCAGACGAGGTATTGCATGACGCGGAAATCGCAAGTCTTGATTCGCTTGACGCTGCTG,81.7
CCCGATCCTTCTTACCGCGTGCTTTGTGAAAAGCAAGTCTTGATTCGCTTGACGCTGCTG,113
TGAAGACAACTCGGCCACGTGGGTAAAAGAAGAAGCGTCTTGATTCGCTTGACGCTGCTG,1620
GAATCGCAAGATACCCACGATGAGACTGTTCAGGTTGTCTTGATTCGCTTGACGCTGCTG,62.2
AAGGAGGGTAAGACACACATGATAATCAATGTCGAAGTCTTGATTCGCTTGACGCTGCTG,117
TTGCAGCTGTTGGCGCGCGTGGTGATGCTGACGTTCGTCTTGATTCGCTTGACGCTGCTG,69.8
ACAAACAACTCACTCAACGTGTCCAAAACTTCGTAGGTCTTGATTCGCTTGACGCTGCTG,99.3
CCATATCAGACTGCCCGCGTGGGTATAATTCTGAGGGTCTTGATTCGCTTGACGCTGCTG,96.6
CGTCCTAGTGATTGGTGTGTGGGTGCCATGAGGAAGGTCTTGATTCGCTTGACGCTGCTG,96.9

# Some of these lines once more (sample 3):
Oligonucleotide,E-score
ACTTCTTA,-0.168
GCCTGTCA,-0.122
TCACGCAA,-8.5e-05
